# Published values pooled from the literature.
# Each numbered part is a random draw from the data of one study; scales do not carry over between parts. Changes are numbered by the printed parent chain.

# Sample 1
# Target: RNA binding protein fox-1 homolog 2, RRM domain, GST-SBP tag (RBFOX2, Homo sapiens, UniProt O43251-10, residues 100-194)
# Method: RNA Bind-n-Seq
# Form: RNA
# Matrix: in vitro
# Concentration: 365 nM
# Notes: natural RNA segment, single round, ends assumed
# Relative to: no-protein control
# Reading: higher = stronger binding
Strand,RBNS enrichment (R)
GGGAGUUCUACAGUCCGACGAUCUCAAUUUAAAAGUGAGUGUGGAAGGGAAACGAAAGUCAACAUAUUUUUAAAAGAUCUUAAAAAUAAUGCCUCUGUCUAGCAUGCCAACAAGAAUGCAUUGAUAUUGUGAAUGGAAUUCUCGGGUGCCAA,12.2
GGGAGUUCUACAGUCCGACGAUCGGCCAUUCCCUGGGACUCUCGCUCCUGCACUGCCAGCCCCUUCUCCUCUCCCCAGGGCCUGGCCCUACCUCCUGGUCUUGUAAUUACAGGAGCCAUUUCUGUAGGUAACUUGGAAUUCUCGGGUGCCAA,0.894
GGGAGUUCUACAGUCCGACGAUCUAUUUUUCUUCCAAACUUCAUAUAUGUCUAUCAGGUAAUAAUAGGCUUGAAAAUUGAUAUCCUGUGGUGCUAAAGUACAGUAGAAAGAGAGGAGAAGUGUAUACAUGUUUUGGAAUUCUCGGGUGCCAA,0.5
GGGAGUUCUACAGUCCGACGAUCAAUCCUGCCCUUCCCUCACAGAGCUGGAACUCCAAGCCUGGCCCCAAAGACCCUCCAUCACGAAGAGCACUUUACAGAUAAGAAUCUUCCUCCCCAGUUCUUCAUGCCUCUGGAAUUCUCGGGUGCCAA,0.884
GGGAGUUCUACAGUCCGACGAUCCUCGAUCUUCAUCCUCUUCAGCAUCACCUUCUUCUCCCAGUUCUCGAGAAGAAAAGGAGAGUAAGAAGGAAAGAGAAGAAGAAUUUAAAACUCACCAUGAAAUGAAAGAAUGGAAUUCUCGGGUGCCAA,0.835
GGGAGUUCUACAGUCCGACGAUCAUGCACUUGACGAGUGCUGAAAACUUCUUAAGUGGUUUAAAUUUUGUUUUCAUUGUUUGCAGCGGAUUACUGGACAUCAAAGAUUCAUUGCACUUAUGAACAAGGAACCUUGGAAUUCUCGGGUGCCAA,0.537
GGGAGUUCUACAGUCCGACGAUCUCAGAGUUAAGUCAAGGAGUGUUCUUUGCCCCAGUCUCCCUAAGACAGUGCCUAUACAUUGGACAAAAAGUCCAAGGAGAGCCAAACUAGUGCAGUAAACGUUUGUACCCUGGAAUUCUCGGGUGCCAA,0.405
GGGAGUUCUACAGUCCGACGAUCAUUGUUUUAUGGCUGAAAUAGAAAGCUAAUGAAGAGGCCUACCUGGAUCCAGAUUUUAUGUUAACAUGGCAGCAAAACUAGGAAAAUGGGAAGAAAUUACUUGCGGGGUGUGGAAUUCUCGGGUGCCAA,0.575

# Sample 2
# Target: Sal-like protein 4, full length isoform A (SALL4, Homo sapiens, UniProt Q9UJQ4, residues 1-1053)
# Sequence of UniProt Q9UJQ4 (whole entry, looked up): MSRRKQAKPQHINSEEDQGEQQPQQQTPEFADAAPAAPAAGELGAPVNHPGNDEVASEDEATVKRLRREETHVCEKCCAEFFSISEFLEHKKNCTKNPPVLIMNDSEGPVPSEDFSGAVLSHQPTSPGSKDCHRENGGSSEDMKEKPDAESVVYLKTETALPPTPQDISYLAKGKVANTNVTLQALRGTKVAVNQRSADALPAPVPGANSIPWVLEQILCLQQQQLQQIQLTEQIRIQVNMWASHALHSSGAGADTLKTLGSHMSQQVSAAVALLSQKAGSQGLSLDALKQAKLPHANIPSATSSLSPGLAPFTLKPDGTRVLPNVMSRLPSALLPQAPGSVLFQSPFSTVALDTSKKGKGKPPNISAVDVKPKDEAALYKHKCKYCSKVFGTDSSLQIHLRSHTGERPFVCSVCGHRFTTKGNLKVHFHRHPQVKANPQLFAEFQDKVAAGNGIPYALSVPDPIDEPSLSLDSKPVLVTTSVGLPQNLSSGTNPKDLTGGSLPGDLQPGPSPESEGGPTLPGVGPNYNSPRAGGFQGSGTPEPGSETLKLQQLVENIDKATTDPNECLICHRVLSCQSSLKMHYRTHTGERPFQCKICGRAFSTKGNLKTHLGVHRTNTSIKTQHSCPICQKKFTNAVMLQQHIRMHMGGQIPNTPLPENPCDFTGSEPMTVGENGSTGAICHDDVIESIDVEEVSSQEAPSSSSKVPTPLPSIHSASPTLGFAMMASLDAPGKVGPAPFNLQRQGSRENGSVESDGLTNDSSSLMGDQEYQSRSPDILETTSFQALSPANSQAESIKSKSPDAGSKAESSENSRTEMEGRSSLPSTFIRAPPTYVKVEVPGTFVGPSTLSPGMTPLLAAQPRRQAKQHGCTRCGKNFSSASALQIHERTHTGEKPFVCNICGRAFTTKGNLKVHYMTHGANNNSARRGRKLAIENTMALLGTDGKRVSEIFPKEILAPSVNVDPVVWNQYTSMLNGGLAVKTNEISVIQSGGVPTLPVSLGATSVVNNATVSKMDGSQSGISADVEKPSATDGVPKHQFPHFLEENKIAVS
# Method: universal PBM
# Form: double-stranded DNA, one strand shown
# Matrix: in vitro
# Concentration: 600 nM
# Notes: 8-mer, flanks averaged, mean of replicates
# Reading: higher = stronger binding
Strand,E-score
ACTATGTC,0.109
TAAAGAAA,0.315
CGGGGTAG,-0.281
AGACGCTC,-0.18
GACCTCCC,-0.355
ATCCAGTA,0.0755
GAGTAGCA,-0.0397
ATCCGGGC,-0.348
CTCGATTA,0.14
AGAAATGG,-0.0153
ACAGGTGA,0.0811
CAAGATGG,-0.105
CCGAGTTC,-0.101
CTTCATAC,0.205
TATCACGA,0.169
GTGATCAC,-0.149
ATTATGCA,0.314

# Sample 3
# Target: DBP, bZIP domain (human)
# Method: DHFR protein complementation
# Matrix: yeast
# Notes: single substitutions, most at no-binding floor
# Relative to: wild-type JUN-FOS pair
# Reading: higher = stronger binding
# Starting sequence: JUN, bZIP domain (human); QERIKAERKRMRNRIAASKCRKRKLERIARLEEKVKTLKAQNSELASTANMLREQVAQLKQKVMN; partner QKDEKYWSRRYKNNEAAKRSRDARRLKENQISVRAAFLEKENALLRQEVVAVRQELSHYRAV
Substitution,binding fitness [natural log]
S43T,-1.43
A46G,-1.42
R53L,-1.49
S43F,-1.51
Q41R,-1.44
L38N,-1.53
N42T,-1.45
V35E,-1.46
V56T,-1.47
A40C,-1.55
Q55V,-1.11
A49M,-1.52
E33D,-1.49
S47R,-1.35
L38Q,-1.46
R53V,-1.45
L38G,-1.49
A46Q,-1.41
K39E,-1.44
K39L,-1.45
V35K,-1.51
E44N,-1.49
L38A,-1.52
M51V,-1.44
A46D,-1.49

# Sample 4
# Target: Ras GTPase-activating protein-binding protein 1, full length (G3BP1, Homo sapiens, UniProt Q13283)
# Sequence of UniProt Q13283 (whole entry, looked up): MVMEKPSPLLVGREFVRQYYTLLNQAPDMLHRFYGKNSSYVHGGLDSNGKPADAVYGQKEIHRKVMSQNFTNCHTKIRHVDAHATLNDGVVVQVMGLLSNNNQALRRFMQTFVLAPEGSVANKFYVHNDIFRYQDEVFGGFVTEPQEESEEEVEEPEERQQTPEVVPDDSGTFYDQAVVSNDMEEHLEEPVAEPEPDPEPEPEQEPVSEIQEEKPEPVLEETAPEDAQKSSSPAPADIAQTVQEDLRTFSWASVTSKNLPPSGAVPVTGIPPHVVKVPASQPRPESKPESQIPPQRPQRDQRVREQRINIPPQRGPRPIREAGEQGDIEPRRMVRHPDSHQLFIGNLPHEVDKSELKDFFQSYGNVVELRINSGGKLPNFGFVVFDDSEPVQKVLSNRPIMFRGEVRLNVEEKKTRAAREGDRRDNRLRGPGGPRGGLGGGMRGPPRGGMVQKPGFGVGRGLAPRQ
# Method: RNA Bind-n-Seq
# Form: RNA
# Matrix: in vitro
# Concentration: 200 nM
# Notes: whole 134-nt RNA, ends assumed
# Together with: 150 mM LiCl
# Relative to: input library
# Reading: higher = stronger binding
# Library: 7-deaza-guanosine replaces G
Strand,log2 enrichment
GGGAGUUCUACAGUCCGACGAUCGUCCUGUGCUACACAUCGUAUGUACCGAAUCAAACCCAAAUUUUUUUAAAUUUUUAAAAAAGUAUUAUGUUACGCCGUUCGGAUCUGCACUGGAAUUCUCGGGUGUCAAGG,-1.48
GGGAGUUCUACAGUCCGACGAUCCCUGUGCUACACAUCGUAUGUACCGAAUCGGGGUUUUUUGGGUUUUUUGGGGUUUUUUGGAAAGUAUUAUGUUACGCCGUUCGGAUCUGCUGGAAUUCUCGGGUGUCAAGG,1.09
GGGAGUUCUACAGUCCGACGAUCCCUCAAGUCCUGUGCUACACAUCGUAUGUACCGAAUCGGGUGGUGGGGUGGGGAAAGUAUUAUGUUACGCCGUUCGGAUCUGCACUUCCAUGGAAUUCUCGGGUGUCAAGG,-0.165
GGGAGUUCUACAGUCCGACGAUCUGGCCCUGGUGGCAUGCGGGGAGGAAGAGGGGGCCUCAUGGAUCGUGGUGGUCCCGGUGGAAUGUUCAGAGGUGGCCGUGGUGGAGACAGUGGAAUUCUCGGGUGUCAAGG,0.779
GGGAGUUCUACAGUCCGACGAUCGCAGGAAGUAAAAACAAAUGGAAAUGCUUCGGAUAGUGGCAGGGGUGGGGGUUGCUAAGGAAAGGGUGGGAUGGGAGUGGGUAGAGAGUUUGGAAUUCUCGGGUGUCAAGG,-0.124
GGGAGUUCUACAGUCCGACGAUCUGGGAGGUGGAUUUUGUUUAUUUUUUUAGCUCAUUUCCAGGGGUGGGGAUUUUUUUUUAAUAUGUGUCAUGAAUAAAGUUGUUUUUGAAAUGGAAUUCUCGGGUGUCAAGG,-0.182
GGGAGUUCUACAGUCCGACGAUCUUAGGCACUUGUUGGGCUCAUCACCGUUGUGUGGAGUGGUCACUAGGAGUAUGCCAGAUGGAAGAACCAUUGUUAGUGAACGUGGACAAAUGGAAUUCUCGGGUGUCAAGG,-0.397
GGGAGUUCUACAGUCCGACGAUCCACAGACCACACGCACCCACACAGACACAGAGGGAAGGGGUUGGGAUGGGGACAGGGUGCACAGCAGGGCGGGGUAGGACCCCAGCCCCUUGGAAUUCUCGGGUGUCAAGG,0.242

# Mixed results
# Method: cross-linking MS
Substance,partner,matrix,notes,together with,endpoint,result
"UQCRQ (Homo sapiens, UniProt O14949)","UQCRC2 (Homo sapiens, UniProt P22695)",,hits only,,interaction screen,cross-linked
"DDX39B (Homo sapiens, UniProt Q13838)","CCDC146 (Homo sapiens, UniProt Q8IYE0)",cell fractions,,DMTMM,cross-linked residues,K155 to E286
"EEF1G (Homo sapiens, UniProt P26641)","USP48 (Homo sapiens, UniProt Q86UV5)",cell fractions,,DSSO,cross-linked residues,K219 to K201
"SAP18 (Homo sapiens, UniProt O00422)","PNN (Homo sapiens, UniProt Q9H307)",,hits only,,interaction screen,cross-linked

# Excerpt of the above (sample 4):
Strand,log2 enrichment
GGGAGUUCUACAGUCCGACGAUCGUCCUGUGCUACACAUCGUAUGUACCGAAUCAAACCCAAAUUUUUUUAAAUUUUUAAAAAAGUAUUAUGUUACGCCGUUCGGAUCUGCACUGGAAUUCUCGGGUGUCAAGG,-1.48
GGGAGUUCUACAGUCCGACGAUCCCUGUGCUACACAUCGUAUGUACCGAAUCGGGGUUUUUUGGGUUUUUUGGGGUUUUUUGGAAAGUAUUAUGUUACGCCGUUCGGAUCUGCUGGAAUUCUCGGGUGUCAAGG,1.09
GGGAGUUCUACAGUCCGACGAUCCCUCAAGUCCUGUGCUACACAUCGUAUGUACCGAAUCGGGUGGUGGGGUGGGGAAAGUAUUAUGUUACGCCGUUCGGAUCUGCACUUCCAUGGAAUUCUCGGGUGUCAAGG,-0.165
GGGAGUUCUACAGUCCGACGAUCUGGCCCUGGUGGCAUGCGGGGAGGAAGAGGGGGCCUCAUGGAUCGUGGUGGUCCCGGUGGAAUGUUCAGAGGUGGCCGUGGUGGAGACAGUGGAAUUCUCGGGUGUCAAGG,0.779
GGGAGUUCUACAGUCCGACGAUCGCAGGAAGUAAAAACAAAUGGAAAUGCUUCGGAUAGUGGCAGGGGUGGGGGUUGCUAAGGAAAGGGUGGGAUGGGAGUGGGUAGAGAGUUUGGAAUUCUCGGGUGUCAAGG,-0.124
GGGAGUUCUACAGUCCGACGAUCUGGGAGGUGGAUUUUGUUUAUUUUUUUAGCUCAUUUCCAGGGGUGGGGAUUUUUUUUUAAUAUGUGUCAUGAAUAAAGUUGUUUUUGAAAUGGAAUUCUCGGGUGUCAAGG,-0.182
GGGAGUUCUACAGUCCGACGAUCUUAGGCACUUGUUGGGCUCAUCACCGUUGUGUGGAGUGGUCACUAGGAGUAUGCCAGAUGGAAGAACCAUUGUUAGUGAACGUGGACAAAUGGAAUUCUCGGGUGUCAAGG,-0.397
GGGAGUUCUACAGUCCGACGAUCCACAGACCACACGCACCCACACAGACACAGAGGGAAGGGGUUGGGAUGGGGACAGGGUGCACAGCAGGGCGGGGUAGGACCCCAGCCCCUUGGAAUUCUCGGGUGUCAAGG,0.242
